{"data": "Results pooled from the literature", "note": "Numbered parts are unrelated; each lists some results of a single study. Values joined by “and” are separate records of one study, mostly repeats; a detail may differ.", "UniProt P21728, sequence (whole entry, looked up)": "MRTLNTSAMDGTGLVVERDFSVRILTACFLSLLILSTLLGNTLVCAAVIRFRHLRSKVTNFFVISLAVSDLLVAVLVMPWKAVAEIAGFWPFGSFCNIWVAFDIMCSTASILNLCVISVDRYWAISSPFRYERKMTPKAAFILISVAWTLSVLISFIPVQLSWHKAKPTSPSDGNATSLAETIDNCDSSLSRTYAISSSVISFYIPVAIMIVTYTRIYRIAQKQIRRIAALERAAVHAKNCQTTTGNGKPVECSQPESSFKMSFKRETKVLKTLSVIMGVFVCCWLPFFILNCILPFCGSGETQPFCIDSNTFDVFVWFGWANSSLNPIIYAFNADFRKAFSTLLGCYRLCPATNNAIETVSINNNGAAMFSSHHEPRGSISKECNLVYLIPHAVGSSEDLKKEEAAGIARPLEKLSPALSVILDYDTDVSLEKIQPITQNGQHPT", "UniProt Q8TD19, sequence (whole entry, looked up)": "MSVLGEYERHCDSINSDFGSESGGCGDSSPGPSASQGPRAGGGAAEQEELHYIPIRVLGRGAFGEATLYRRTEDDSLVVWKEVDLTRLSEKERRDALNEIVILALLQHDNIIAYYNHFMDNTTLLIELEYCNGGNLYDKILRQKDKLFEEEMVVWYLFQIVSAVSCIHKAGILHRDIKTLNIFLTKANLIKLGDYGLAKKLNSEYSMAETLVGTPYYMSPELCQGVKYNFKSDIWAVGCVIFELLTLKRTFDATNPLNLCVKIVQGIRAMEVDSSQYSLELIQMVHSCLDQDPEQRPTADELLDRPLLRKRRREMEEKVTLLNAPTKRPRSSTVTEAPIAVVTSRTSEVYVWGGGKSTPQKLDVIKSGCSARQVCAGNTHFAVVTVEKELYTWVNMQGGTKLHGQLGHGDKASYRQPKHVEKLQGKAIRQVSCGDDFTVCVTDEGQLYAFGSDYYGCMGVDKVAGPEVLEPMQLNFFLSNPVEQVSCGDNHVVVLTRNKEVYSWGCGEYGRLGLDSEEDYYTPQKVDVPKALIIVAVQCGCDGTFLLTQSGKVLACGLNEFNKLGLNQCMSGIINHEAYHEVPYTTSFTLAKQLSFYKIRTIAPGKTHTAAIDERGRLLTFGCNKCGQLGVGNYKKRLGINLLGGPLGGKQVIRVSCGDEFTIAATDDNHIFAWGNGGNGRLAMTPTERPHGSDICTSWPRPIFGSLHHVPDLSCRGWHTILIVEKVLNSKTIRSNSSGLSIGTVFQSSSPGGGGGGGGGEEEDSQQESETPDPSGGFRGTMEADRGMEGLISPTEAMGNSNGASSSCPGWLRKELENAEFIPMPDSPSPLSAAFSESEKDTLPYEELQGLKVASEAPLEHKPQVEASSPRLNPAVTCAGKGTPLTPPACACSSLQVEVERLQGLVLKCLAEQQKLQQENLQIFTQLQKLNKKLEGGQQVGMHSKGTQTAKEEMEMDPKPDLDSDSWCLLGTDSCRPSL", "UniProt P53779, sequence (whole entry, looked up)": "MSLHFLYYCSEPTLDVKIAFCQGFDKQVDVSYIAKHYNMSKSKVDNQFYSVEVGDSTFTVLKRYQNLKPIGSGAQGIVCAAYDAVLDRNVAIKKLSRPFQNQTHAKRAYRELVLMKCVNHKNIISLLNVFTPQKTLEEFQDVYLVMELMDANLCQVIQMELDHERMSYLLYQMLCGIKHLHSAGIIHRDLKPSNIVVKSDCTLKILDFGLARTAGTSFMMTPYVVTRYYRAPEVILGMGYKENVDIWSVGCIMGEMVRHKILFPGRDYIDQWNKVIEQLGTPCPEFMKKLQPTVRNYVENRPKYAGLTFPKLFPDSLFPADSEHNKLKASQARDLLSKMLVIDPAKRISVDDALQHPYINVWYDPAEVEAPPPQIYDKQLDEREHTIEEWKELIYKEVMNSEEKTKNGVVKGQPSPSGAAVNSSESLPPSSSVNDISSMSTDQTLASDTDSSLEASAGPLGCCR", "UniProt P28222, sequence (whole entry, looked up)": "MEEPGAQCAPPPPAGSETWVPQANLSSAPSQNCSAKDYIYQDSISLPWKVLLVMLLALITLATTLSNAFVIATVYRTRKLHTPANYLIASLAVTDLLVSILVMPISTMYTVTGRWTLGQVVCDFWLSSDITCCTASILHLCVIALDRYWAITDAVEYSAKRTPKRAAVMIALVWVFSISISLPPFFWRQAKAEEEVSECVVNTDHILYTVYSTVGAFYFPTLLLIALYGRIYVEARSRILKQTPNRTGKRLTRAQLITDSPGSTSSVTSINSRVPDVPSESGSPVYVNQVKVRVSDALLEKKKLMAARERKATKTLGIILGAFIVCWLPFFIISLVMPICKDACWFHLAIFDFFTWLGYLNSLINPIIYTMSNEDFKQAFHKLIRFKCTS", "UniProt Q9H2G2, sequence (whole entry, looked up)": "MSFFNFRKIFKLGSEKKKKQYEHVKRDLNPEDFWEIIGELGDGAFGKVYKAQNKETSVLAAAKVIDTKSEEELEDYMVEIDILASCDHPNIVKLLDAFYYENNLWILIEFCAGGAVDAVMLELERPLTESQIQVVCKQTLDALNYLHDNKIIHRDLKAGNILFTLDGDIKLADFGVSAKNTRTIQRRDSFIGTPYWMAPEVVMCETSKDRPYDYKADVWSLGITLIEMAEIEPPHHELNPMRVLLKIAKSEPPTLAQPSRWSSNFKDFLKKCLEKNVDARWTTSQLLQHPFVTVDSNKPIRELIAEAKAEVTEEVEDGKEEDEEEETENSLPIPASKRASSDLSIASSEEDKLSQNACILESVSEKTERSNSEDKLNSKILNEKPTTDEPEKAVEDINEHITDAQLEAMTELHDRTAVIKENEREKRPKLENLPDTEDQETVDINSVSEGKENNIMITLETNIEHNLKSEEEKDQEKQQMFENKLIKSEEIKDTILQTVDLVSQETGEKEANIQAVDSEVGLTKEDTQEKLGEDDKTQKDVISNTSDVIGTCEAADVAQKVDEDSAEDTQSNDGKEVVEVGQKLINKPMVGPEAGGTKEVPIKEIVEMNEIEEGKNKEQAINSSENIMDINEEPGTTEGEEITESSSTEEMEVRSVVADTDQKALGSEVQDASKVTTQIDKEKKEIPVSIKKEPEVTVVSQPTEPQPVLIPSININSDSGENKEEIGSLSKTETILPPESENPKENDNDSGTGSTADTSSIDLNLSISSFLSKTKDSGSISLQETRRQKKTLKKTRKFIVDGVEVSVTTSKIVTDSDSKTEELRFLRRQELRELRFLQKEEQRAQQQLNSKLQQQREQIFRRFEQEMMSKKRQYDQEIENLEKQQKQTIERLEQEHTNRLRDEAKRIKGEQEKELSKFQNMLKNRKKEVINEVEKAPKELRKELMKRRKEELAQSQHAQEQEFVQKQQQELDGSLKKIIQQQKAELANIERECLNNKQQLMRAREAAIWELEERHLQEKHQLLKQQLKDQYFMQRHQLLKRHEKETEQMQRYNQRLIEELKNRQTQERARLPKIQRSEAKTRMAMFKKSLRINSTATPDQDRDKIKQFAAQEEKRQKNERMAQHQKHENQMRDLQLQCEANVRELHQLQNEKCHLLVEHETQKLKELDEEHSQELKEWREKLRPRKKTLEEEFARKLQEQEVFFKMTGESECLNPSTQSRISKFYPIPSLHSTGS", "UniProt O75116, sequence (whole entry, looked up)": "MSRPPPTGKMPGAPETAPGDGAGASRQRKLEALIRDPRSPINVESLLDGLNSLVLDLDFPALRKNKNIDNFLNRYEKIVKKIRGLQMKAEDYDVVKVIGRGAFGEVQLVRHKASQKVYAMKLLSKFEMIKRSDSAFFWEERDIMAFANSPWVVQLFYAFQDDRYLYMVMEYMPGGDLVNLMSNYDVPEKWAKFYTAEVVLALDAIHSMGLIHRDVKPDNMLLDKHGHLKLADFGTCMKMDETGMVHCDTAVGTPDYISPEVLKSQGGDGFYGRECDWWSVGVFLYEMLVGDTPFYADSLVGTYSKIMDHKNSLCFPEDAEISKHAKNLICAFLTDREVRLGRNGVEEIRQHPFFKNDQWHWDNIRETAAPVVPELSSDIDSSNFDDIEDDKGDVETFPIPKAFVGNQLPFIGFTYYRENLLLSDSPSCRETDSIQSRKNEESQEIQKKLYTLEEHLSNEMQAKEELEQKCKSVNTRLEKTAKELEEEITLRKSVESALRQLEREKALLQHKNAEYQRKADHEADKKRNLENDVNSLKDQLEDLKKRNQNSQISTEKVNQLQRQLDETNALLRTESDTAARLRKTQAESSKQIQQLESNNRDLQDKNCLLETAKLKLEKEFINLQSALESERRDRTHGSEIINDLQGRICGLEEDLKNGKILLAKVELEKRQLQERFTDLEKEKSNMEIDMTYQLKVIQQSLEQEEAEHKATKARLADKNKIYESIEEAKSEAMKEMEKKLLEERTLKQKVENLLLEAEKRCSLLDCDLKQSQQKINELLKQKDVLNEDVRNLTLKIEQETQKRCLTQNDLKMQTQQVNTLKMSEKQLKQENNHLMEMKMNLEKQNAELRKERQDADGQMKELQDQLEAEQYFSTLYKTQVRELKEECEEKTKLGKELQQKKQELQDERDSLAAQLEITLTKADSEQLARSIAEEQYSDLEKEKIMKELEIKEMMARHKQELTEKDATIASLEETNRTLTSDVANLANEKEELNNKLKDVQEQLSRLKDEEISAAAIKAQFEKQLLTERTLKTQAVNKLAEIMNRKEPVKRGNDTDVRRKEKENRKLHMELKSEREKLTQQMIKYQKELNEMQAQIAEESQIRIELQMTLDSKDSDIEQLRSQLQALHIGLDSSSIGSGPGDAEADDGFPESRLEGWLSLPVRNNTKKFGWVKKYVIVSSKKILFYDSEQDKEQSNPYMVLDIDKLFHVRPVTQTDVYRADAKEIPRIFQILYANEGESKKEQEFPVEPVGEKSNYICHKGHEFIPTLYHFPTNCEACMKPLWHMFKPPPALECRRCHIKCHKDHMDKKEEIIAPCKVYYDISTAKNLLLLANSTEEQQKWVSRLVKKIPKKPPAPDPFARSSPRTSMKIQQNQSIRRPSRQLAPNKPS"}
{"data": "Sample 1", "Structure (SMILES)": "COc1ccc2c(c1)/C(=C/c1cnc[nH]1)C(=O)N2", "read-out": "enzyme activity", "action": "inhibitor", "concentration": "0.5 µM", "relative to": "control"}
{"target": "MAPK10 (Homo sapiens, UniProt P53779)", "remaining activity [%]": 105}
{"target": "NEK9 (Homo sapiens, UniProt Q8TD19)", "remaining activity [%]": 83.2}
{"target": "SLK (Homo sapiens, UniProt Q9H2G2)", "remaining activity [%]": 81.9}
{"target": "PRKD1 (Homo sapiens, UniProt Q15139)", "remaining activity [%]": 47.9}
{"target": "ROCK2 (Homo sapiens, UniProt O75116)", "remaining activity [%]": 87.4}
{"data": "Sample 2", "cell line": "HaCaT", "concentration": "100 µM", "time": "36 h"}
{"Compound": "Cc1ccc(-n2nccn2)c(C(=O)N2CCN(c3nc4cc(Cl)ccc4o3)CC[C@H]2C)c1", "viability [%]": 27.1}
{"Compound": "CN1C[C@H](C(=O)N[C@]2(C)O[C@@]3(O)[C@@H]4CCCN4C(=O)[C@H](Cc4ccccc4)N3C2=O)C=C2c3cccc4[nH]cc(c34)C[C@H]21", "viability [%]": 54.4}
{"Compound": "CCOC(=O)Nc1ccc(NCc2ccc(F)cc2)cc1N", "viability [%]": 82.1}
{"Compound": "C[C@]12CCC(=O)C=C1CC[C@@H]1[C@@H]2C(=O)C[C@]2(C)C(=O)CC[C@@H]12", "viability [%]": 99.4}
{"Compound": "CN1C(=O)COc2c(C(=O)NC3CN4CCC3CC4)cc(Cl)cc21 (centres unmarked)", "viability [%]": 83.9}
{"data": "Sample 3", "Compound": "CNC(=O)c1ccc(-c2cnn3ccc(C(=O)N(C)c4ccc(Cl)c(C(=O)OC)c4)cc23)cc1", "organism": "Cryptosporidium parvum", "technique": "time-kill", "cells": "HCT-8", "strain": "nanoluciferase-expressing", "relative to": "DMSO control"}
{"concentration": "0.02743 µM", "time": "24 h", "luminescence remaining": "30.6% and 32.8%"}
{"concentration": "6.667 µM", "time": "0 h", "luminescence remaining": "101% and 92% and 117% and 105% and 103% and 102% and 94.1% and 85.9%"}
{"concentration": "0.00102 µM", "time": "24 h", "luminescence remaining": "68.8% and 109%"}
{"concentration": "6.667 µM", "time": "8 h", "luminescence remaining": "96.2% and 113%"}
{"concentration": "0.00102 µM", "time": "0 h", "luminescence remaining": "113% and 97.9% and 85.3% and 106% and 93.1% and 94.5% and 102%"}
{"concentration": "20 µM", "time": "4 h", "luminescence remaining": "85.3% and 105%"}
{"data": "Mixed results"}
{"SMILES": "CNC(=N)NCCC[C@H](NC(=O)[C@H](CC(C)C)NC(=O)NNC(=O)[C@H](Cc1ccccc1)NC(=O)[C@H](CO)NC(=O)[C@H](CC(N)=O)NC(=O)[C@@H](Cc1ccncc1)NC(=O)[C@H](N)Cc1ccc(O)cc1)C(=O)N[C@@H](Cc1ccccc1)C(N)=O", "target": "HTR1B (Homo sapiens, UniProt P28222)", "read-out": "ligand displacement", "technique": "radioligand", "concentration": "10 µM", "endpoint": "inhibition", "value": "29.3%"}
{"SMILES": "CS(=O)(=O)N1CCCC(NC(=O)[C@H](CCC2CCCCC2)NC(=O)c2ccc(CNc3ncnc4c3nnn4-c3ccccc3)cc2)C1 (some centres unmarked)", "target": "CDPK1 (Plasmodium falciparum, UniProt P62344)", "read-out": "cell-free assay", "technique": "competition with immobilised ligand", "concentration": "0.1 µM", "endpoint": "remaining binding", "value": "100%"}
{"SMILES": "CNC(=O)c1cc(C(=O)NC2CC2)cn(Cc2ccccc2)c1=O", "target": "DRD1 (Homo sapiens, UniProt P21728)", "read-out": "binding", "technique": "radioligand binding", "concentration": "10 µM", "endpoint": "inhibition", "value": "6.94%"}
{"SMILES": "O=C(NCc1ncc(C(F)(F)F)cc1Cl)c1ccc2c(c1)C1(CCS(=O)(=O)CC1)[C@@H](C1CC1)N2S(=O)(=O)c1ccc(F)cc1", "target": "OPRD1 (Homo sapiens, UniProt P41143)", "read-out": "ligand displacement", "concentration": "10 µM", "endpoint": "inhibition", "value": "-2.65%"}
